Measured values of several laboratories.
Lines come from different studies, so protocols differ. Numbers after ± are the reported error.
Cell line: MOLT-4

| Compound | assay | setting | measurement | result |
| --- | --- | --- | --- | --- |
| Nc1ncc(-c2nc(N3CCOCC3)nc(N3CCOCC3)n2)c(C(F)F)n1 |  | 72 h | GI50 | 0.083 µM |
| O=C(c1ccccc1)c1cc2c(-c3ccccc3)c(O)ccc2o1 | cell proliferation | 72 h | IC50 | 38 ± 4 µM |
| COc1cc(CCC[P+](c2ccccc2)(c2ccccc2)c2ccccc2)c(OC)c2c1OCO2.[I-] | SRB |  | GI50 | -5.48 log M |
| CN1CCN(C2(CNC3CCN(c4cccc(-c5cc6cc(F)ccc6[nH]5)c4)CC3)CCC2)CC1 |  |  | GI50 | 1.61 µM |
| COc1cc(C(=O)c2cc3c(-c4ccccc4)c(OC)ccc3o2)cc(OC)c1OC | cell proliferation | 72 h | IC50 | > 50 µM |
| CC(C)N1CCC(NC2CCN(c3cccc(-c4cc5cc(F)ccc5[nH]4)c3)CC2)CC1 |  |  | GI50 | 1.54 µM |
| COc1c(CCC[P+](c2ccccc2)(c2ccccc2)c2ccccc2)cc2c(c1OC)OCO2.[I-] | SRB |  | GI50 | -5.51 log M |
| Cn1cncc1C1=CN(c2ncnc3[nH]cnc23)CCS1 |  | leukemia | CC50 | > 200 µM |
| CCN(CC)c1ccc(C=NNC(=O)CSc2nc3ccccc3c(=O)n2Cc2ccc(S(N)(=O)=O)cc2)c(O)c1 | NCI five-dose screen |  | CC50 | > 100 µM |

Some of these lines once more:
| Compound | assay | setting | measurement | result |
| --- | --- | --- | --- | --- |
| CN1CCN(C2(CNC3CCN(c4cccc(-c5cc6cc(F)ccc6[nH]5)c4)CC3)CCC2)CC1 |  |  | GI50 | 1.61 µM |
